Assay results gathered from unrelated publications.
Compare with care: the assays were run in different laboratories. ± marks the error that the study gave.

SMILES	organism	assay	test system	conditions	EC50
NC(=O)c1ncn([C@@H]2O[C@H](CO)[C@@H](O)[C@H]2O)n1	Alphacoronavirus 1	viral replication, inhibitor	CRFK	2 h	74.6 µM
CC1(C)OB(c2ccc(NC(=O)c3cn(Cc4ccc(F)cc4)cc(O)c3=O)cc2)OC1(C)C	Human betaherpesvirus 5	viral replication, inhibitor	–	7 days	3 µM
O=C(NO)c1ccc(O)c(O)c1	human cytomegalovirus	viral spread, GFP reporter	ARPE-19, BADrUL131-Y4 (AD169, GFP)	14 d	182 ± 23 µM
N#CC1(C#N)C2C=CC(c3coc4cccc2c34)C1(C#N)C#N (centres unmarked)	Alphacoronavirus 1	viral replication, inhibitor	CRFK	2 h	6.2 µM
Cc1ccc(S(=O)(=O)N2C(=O)CSC2c2ccc(Cl)cc2)cc1 (centres unmarked)	herpes simplex virus 1	viral cytopathicity	HEL, KOS TK-deficient acyclovir-resistant	–	> 100 µM
O=C(N/N=C1\C(=O)Nc2ccc([N+](=O)[O-])cc21)N/N=C1\C(=O)Nc2ccc([N+](=O)[O-])cc21	respiratory syncytial virus	viral replication	HeLa	–	> 100 µM
Cc1ccc(S(=O)(=O)N2C(=O)CSC2c2ccc(C(C)C)cc2)cc1 (centres unmarked)	herpes simplex virus 1	viral cytopathicity	HEL, KOS	–	> 100 µM
COC(=O)N[C@H](C(=O)N1CCC[C@H]1c1ncc(-c2ccc(-c3ccc(-c4cnc([C@@H]5CCCN5C(=O)[C@@H](NC(=O)OC)C(C)C)[nH]4)cc3)cc2)[nH]1)C(C)C	hepatitis C virus	viral replication, transient replicon	genotype 1b replicon NS5A L31V	–	6.1e-05 ± 1.5e-05 µM
COc1cc(O)c2c(c1O)C(=O)C(CC(C)O)=C(C)C2=O (centres unmarked)	Trichomonas vaginalis	viability	–	17 h	40 µM
COc1ccc2c3c([nH]c2c1)[C@H](CO)N(Cc1ccccc1)CC31CCN(C(=O)Cc2ccccc2)CC1	respiratory syncytial virus	cytopathic effect	HEp-2, A2	5 days, resynthesized sample	10.3 µM
O=C1C(O)=C([C@H]2CC[C@H](c3ccc(Cl)cc3)CC2)C(=O)c2ccccc21	Plasmodium berghei	–	hepatocytes, liver stage	2 h	~0.106 µM
O=C(NCc1cc(F)c(F)cc1F)c1cn(Cc2ccc(F)cc2)cc(O)c1=O	Human betaherpesvirus 5	viral replication, inhibitor	–	7 days	0.7 µM
COC(=O)c1cc(N(C)C(=O)c2ccn3ncc(-c4ccc(C(=O)O)cc4)c3c2)ccc1Cl	Cryptosporidium parvum	cytopathic effect	HCT-8	48 h	> 20 µM
O=C(N/N=C1\C(=O)Nc2ccc(Cl)cc21)N/N=C1\C(=O)Nc2ccc(Cl)cc21	respiratory syncytial virus	viral replication	HeLa	–	> 100 µM
O=C(Cc1csc2nc(-c3ccc(Br)cc3)cn12)NN=C1CCC(c2ccccc2)CC1 (centres unmarked)	feline herpesvirus	viral cytopathic effect	CRFK	–	> 100 µg/mL
Cc1cn(Cc2ccc(O)c(C=O)c2)c(=O)[nH]c1=O	human cytomegalovirus	cytopathic effect	HEL fibroblasts, Davis	–	> 100 µM
NC1=NC(=O)N(C[C@@H](CF)OCP(=O)(O)O)CN1	herpes simplex virus 1	cytopathic effect	HEL, KOS, TK-deficient, acyclovir-resistant	–	> 100 µM
COc1c(C)c2c(c(O)c1C/C=C(\C)CCC(=O)O)C(=O)OC2	Zika virus	viral cytopathic effect, visual CPE scoring	Vero	–	1.8 µM
N#Cc1ccc(CNC(=O)c2cn(Cc3ccc(F)cc3)cc(O)c2=O)c(F)c1	Human betaherpesvirus 5	viral replication, inhibitor	–	7 days	1.2 µM
O=C(CN1c2c(n[nH]c2-c2cccc(Cl)c2)-c2ccccc2S1(=O)=O)NN=Cc1ccc(F)cc1	HIV-1	viral replication	PBMC	–	9.2 µM

A few entries again:
SMILES	organism	assay	test system	conditions	EC50
N#CC1(C#N)C2C=CC(c3coc4cccc2c34)C1(C#N)C#N (centres unmarked)	Alphacoronavirus 1	viral replication, inhibitor	CRFK	2 h	6.2 µM
